Measurements gathered from unrelated publications.
Lines come from different studies, so protocols differ. ± gives the spread as reported.
Cell line: U-251
Technique: SRB

COc1cc(/C=C/C(=O)/C=C(O)/C=C/c2ccc(OCC(=O)N3CCOCCOCCOCCOCCOCC3)c(OC)c2)ccc1OCC(=O)N1CCOCCOCCOCCOCCOCC1 — IC50 (cell growth or viability): 5.4 µM
COc1ccc(C2=Nn3c(NN=C4C(=O)N(C)c5ccc(Br)cc54)nnc3SC2)cc1 — inhibition (cell growth or viability; 10 µM): 15%
COc1cc(/C=C/C(=O)/C=C(O)/C=C/c2ccc(OCC(=O)N3CCOCCOCCOCC3)c(OC)c2)ccc1OCC(=O)N1CCOCCOCCOCC1 — inhibition (cell growth or viability; 5 µM): 11.7%
CC(Cc1ccc(Cl)cc1)=C(c1ccc(Cl)cc1)c1ccc(OCCN(C)C)cc1 — GI50 (cell growth or viability): 3.72 µM
COc1cc(/C=C/C(=O)/C=C(O)/C=C/c2ccc(OCC(=O)N3CCOCCOCCOCCOCC3)c(OC)c2)ccc1OCC(=O)N1CCOCCOCCOCCOCC1 — inhibition (cell growth or viability; 5 µM): 21.4%
CCC(=C(c1ccc(Cl)cc1)c1ccc(OCCCN(C)C)cc1)c1ccc(OC)cc1 — GI50 (cell growth or viability): 1.66 µM
CC/C=C\C/C=C\C/C=C\C/C=C\C/C=C\C/C=C\CCC(=O)Nc1ccn(C2OC(CO)C(O)C2(F)F)c(=O)n1 (centres unmarked) — GI50 (cell growth or viability): 0.0305 µM
CC(=O)OC[C@H]1O[C@@H](Sc2sc(C(=O)c3ccc(C)cc3)c(N)c2-c2nc3ccccc3s2)[C@H](OC(C)=O)[C@@H](OC(C)=O)[C@H]1OC(C)=O — growth (10 µM, 48 h; reference: untreated): 93.7%
C[C@H](CCC=O)[C@@H]1CC[C@]2(C)C3=C(CC[C@@]12C)[C@@]1(C)CC[C@H](O)C(C)(C)[C@@H]1CC3 — IC50 (cell growth or viability): 30.9 µM
CC(=O)OC[C@H]1O[C@@H](Sc2sc(C(=O)c3ccc(Br)cc3)c(N)c2-c2nc3ccccc3s2)[C@H](OC(C)=O)[C@@H](OC(C)=O)[C@H]1OC(C)=O — growth (10 µM, 48 h; reference: untreated): 96.2%
O=C(/C=C/c1ccc2c(c1)C(=O)N(CCCc1ccccc1)CC2)NO — IC50 (cell growth; 72 h): 7.68 ± 2.31 µM
